Published values collected from several papers.
Every numbered part comes from another study and shows a few of its results, in no order. “And” joins repeats or separate records; there may be more than shown.

Set 1
SMILES: C[C@@H]1CN(c2ccc(-c3cc(C(=O)NCCOCCOCCOCCOCCOCCOCCNC(=O)/C=C/c4[nH]cc(C(=O)N[C@@H](CC(N)=O)c5ccc(F)c(Cl)c5)c4-c4ccc(Cl)cc4F)ccc3F)cc2NC(=O)c2ccc(F)cc2C(F)(F)F)C[C@H](C)N1C
Effect on: thermal unfolding
Method: differential scanning fluorimetry
Tested at: 5.5 µM
Direction: higher = more unfolded
WDR5: WD repeat-containing protein 5 (WDR5, Homo sapiens, UniProt P61964)
DCAF1: DDB1- and CUL4-associated factor 1 (DCAF1, Homo sapiens, UniProt Q9Y4B6)
Sequence of UniProt Q9Y4B6 (whole entry, looked up): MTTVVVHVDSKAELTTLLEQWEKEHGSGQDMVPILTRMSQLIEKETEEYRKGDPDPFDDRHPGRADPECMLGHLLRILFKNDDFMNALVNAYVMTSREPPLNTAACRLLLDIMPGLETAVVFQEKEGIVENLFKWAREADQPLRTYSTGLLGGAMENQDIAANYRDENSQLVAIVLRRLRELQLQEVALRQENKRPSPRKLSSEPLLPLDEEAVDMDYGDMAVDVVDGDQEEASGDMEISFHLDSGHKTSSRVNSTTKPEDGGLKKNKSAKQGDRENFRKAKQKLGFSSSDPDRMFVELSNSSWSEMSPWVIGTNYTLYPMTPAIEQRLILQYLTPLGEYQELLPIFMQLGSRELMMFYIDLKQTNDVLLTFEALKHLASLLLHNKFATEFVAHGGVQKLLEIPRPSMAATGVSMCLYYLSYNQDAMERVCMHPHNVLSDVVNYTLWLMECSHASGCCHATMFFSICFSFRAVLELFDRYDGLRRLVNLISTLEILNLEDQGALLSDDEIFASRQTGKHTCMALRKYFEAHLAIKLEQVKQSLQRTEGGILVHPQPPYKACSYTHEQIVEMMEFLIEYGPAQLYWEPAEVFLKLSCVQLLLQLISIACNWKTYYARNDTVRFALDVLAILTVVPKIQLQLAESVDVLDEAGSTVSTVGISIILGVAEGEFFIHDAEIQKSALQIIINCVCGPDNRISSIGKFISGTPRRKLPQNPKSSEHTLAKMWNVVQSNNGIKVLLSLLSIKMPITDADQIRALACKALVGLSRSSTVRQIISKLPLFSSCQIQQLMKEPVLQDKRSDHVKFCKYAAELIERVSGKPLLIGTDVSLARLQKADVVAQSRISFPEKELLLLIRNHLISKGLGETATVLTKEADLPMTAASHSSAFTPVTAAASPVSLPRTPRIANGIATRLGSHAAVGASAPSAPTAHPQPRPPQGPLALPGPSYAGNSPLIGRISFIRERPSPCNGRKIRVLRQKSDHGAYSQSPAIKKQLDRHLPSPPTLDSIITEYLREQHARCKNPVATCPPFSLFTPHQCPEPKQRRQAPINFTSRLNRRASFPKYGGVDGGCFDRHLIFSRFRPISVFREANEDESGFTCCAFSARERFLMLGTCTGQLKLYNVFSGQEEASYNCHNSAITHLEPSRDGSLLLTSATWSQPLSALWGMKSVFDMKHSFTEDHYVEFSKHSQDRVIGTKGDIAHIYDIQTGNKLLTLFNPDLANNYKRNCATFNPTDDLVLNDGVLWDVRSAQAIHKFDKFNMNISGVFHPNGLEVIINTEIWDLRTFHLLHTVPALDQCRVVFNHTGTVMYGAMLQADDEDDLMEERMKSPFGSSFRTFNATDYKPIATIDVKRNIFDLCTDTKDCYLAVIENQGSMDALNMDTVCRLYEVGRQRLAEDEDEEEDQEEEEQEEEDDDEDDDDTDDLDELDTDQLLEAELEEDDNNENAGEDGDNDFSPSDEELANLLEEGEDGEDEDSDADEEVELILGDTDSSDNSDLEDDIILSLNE
For WDR5; 73.41 °C: “SYPRO Orange fluorescence” read 41700 a.u.
For DCAF1; 72.61 °C: “SYPRO Orange fluorescence” read 46000 a.u.
For WDR5; 69.61 °C: “SYPRO Orange fluorescence” read 26000 a.u.
It gave 50100 a.u. for “SYPRO Orange fluorescence” (DCAF1; 68.21 °C).
WDR5; 28.2 °C — “SYPRO Orange fluorescence”: 13500 a.u.
For DCAF1; 59.61 °C: “SYPRO Orange fluorescence” read 45700 a.u.
It gave 16800 a.u. for “SYPRO Orange fluorescence” (WDR5; 54.81 °C).
DCAF1; 76.81 °C — “SYPRO Orange fluorescence”: 42300 a.u.
The “SYPRO Orange fluorescence” was 13800 a.u. (WDR5; 37.2 °C).
It gave 53900 a.u. for “SYPRO Orange fluorescence” (DCAF1; 63.01 °C).
WDR5; 30 °C — “SYPRO Orange fluorescence”: 13600 a.u.

Set 2
Cell line: MDA-MB-231
Effect on: cell viability
Method: CellCounting-Lite
Tested at: 24.69 nM
Temperature: 37 °C
Direction: higher = more viable cells
For `CCn1cnc2c(NCc3nc4cc(Cl)c(Cl)cc4[nH]3)nc(N3CCN(S(C)(=O)=O)CC3)nc21`, the luminescence signal was 314000 a.u. and 332000 a.u. and 298000 a.u.
With `CCn1cnc2c(NCc3nc4cc(Cl)c(Cl)cc4[nH]3)nc(N3CCN(C(=O)c4cccnc4)CC3)nc21` the luminescence signal was 134000 a.u. and 159000 a.u. and 132000 a.u.
For `CCn1cnc2c(NCc3nc4cc(F)c(F)cc4[nH]3)nc(N3CCn4ncnc4C3)nc21`, the luminescence signal was 520000 a.u. and 454000 a.u. and 491000 a.u.
`CCn1cnc2c(NCc3nc4cc(Cl)c(Cl)cc4[nH]3)nc(N3CCN(C(=O)[C@H](C)NC(C)=O)CC3)nc21` gave a luminescence signal of 391000 a.u. and 459000 a.u. and 437000 a.u.
`CC(=O)N1CCN(c2nc(NCc3nc4cc(Cl)c(Cl)cc4[nH]3)c3ncn(-c4cnn(C)c4)c3n2)CC1` gave a luminescence signal of 489000 a.u. and 526000 a.u. and 522000 a.u.
For `CCn1cnc2c(NCc3nc4cc(Cl)c(Cl)cc4[nH]3)nc(N3CCN(C(=O)CNC(C)=O)CC3)nc21`, the luminescence signal was 431000 a.u. and 414000 a.u. and 428000 a.u.
`CC(=O)N1CCN(c2nc(NCc3nc4cc(Cl)c(Cl)cc4[nH]3)c3ncn(C(C)C)c3n2)CC1` has a luminescence signal of 568000 a.u. and 540000 a.u. and 519000 a.u.
With `CCn1cnc2c(NCc3nc4cc(Cl)c(Cl)cc4[nH]3)nc(N3CCN(C(C)=O)CC3)nc21` the luminescence signal was 264000 a.u. and 248000 a.u. and 224000 a.u.
`CCCCOc1nc(NCc2nc3cc(Cl)c(Cl)cc3[nH]2)c2ncn(CC)c2n1` gave a luminescence signal of 680000 a.u. and 616000 a.u. and 523000 a.u.
The luminescence signal of `CCn1cnc2c(NCc3nc4cc(Cl)c(Cl)cc4[nH]3)nc(N3CCn4ncnc4C3)nc21` is reported as 235000 a.u. and 236000 a.u. and 200000 a.u.
For `CCn1cnc2c(NCc3nc4ccc(F)c(F)c4[nH]3)nc(N3CCn4ncnc4C3)nc21`, the luminescence signal was 384000 a.u. and 479000 a.u. and 439000 a.u.

Set 3
Organism: Arabidopsis thaliana
Strain: Col-0
Tested at: 50 µg/mL
Notes: seed germination, single repetition
The hypocotyl length of `CN1C(=O)C(O)(C(=O)O)Oc2cc(F)ccc21` (centres unmarked) is reported as 1.68 cm and 1.71 cm and 1.78 cm and 1.77 cm and 1.87 cm.
With `CCCN1C(=O)C(O)(C(=O)O)Oc2cc(F)ccc21` (centres unmarked) the hypocotyl length was 1.26 cm and 1.25 cm.
With `O=C(O)C1(O)Oc2ccccc2N(Cc2ccccc2)C1=O` (centres unmarked) the hypocotyl length was 1.45 cm and 1.41 cm and 1.48 cm and 1.43 cm.
The hypocotyl length of `O=C(O)C1(O)Oc2cc(Br)ccc2N(Cc2ccccc2)C1=O` (centres unmarked) is reported as 1.35 cm and 1.36 cm and 1.39 cm and 1.37 cm and 1.34 cm.
With `CC(C)=CCN1C(=O)C(O)(C(=O)O)Oc2cc(F)ccc21` (centres unmarked) the hypocotyl length was 1.84 cm and 1.81 cm and 1.82 cm and 1.83 cm.

Set 4
Structure (SMILES): Cc1ccc(O)c(C)c1-c1cnc2[nH]c(-c3cnc(N4CCC5(CC4)CC(N4CCN(c6cc7c(cc6F)c(N6CCC(=O)NC6=O)nn7C)CC4)CO5)nc3)cc2c1C#N (racemic)
Cell line: HCC1569
Method: in-cell western
Item: CDK1 phospho-Thr14
The “pCDK1 (Thr14) level” was 49.8 RLU and 48.9 RLU (12.35 nM).
For 111.11 nM: “pCDK1 (Thr14) level” read 69.5 RLU and 62 RLU.
The “pCDK1 (Thr14) level” was 84.3 RLU and 88.9 RLU (333.33 nM).
4.12 nM — “pCDK1 (Thr14) level”: 20.7 RLU and 31.4 RLU.
It gave 105 RLU and 102 RLU for “pCDK1 (Thr14) level” (1000 nM).
It gave 7.21 RLU and 8.55 RLU for “pCDK1 (Thr14) level” (1.37 nM).
It gave 55.3 RLU and 51.4 RLU for “pCDK1 (Thr14) level” (37.04 nM).
It gave 12.6 RLU and 7.93 RLU for “pCDK1 (Thr14) level” (0.15 nM).

Some of these lines once more (set 2):
`CC(=O)N1CCN(c2nc(NCc3nc4cc(Cl)c(Cl)cc4[nH]3)c3ncn(-c4cnn(C)c4)c3n2)CC1` gave a luminescence signal of 489000 a.u. and 526000 a.u. and 522000 a.u.
For `CCn1cnc2c(NCc3nc4cc(Cl)c(Cl)cc4[nH]3)nc(N3CCN(C(=O)CNC(C)=O)CC3)nc21`, the luminescence signal was 431000 a.u. and 414000 a.u. and 428000 a.u.
`CC(=O)N1CCN(c2nc(NCc3nc4cc(Cl)c(Cl)cc4[nH]3)c3ncn(C(C)C)c3n2)CC1` has a luminescence signal of 568000 a.u. and 540000 a.u. and 519000 a.u.
With `CCn1cnc2c(NCc3nc4cc(Cl)c(Cl)cc4[nH]3)nc(N3CCN(C(C)=O)CC3)nc21` the luminescence signal was 264000 a.u. and 248000 a.u. and 224000 a.u.
`CCCCOc1nc(NCc2nc3cc(Cl)c(Cl)cc3[nH]2)c2ncn(CC)c2n1` gave a luminescence signal of 680000 a.u. and 616000 a.u. and 523000 a.u.
